Published values collected from several papers.
Each line is one published result; not all experiments were run side by side.

| SMILES | target | assay | test system | conditions | inhibition [%] |
| --- | --- | --- | --- | --- | --- |
| COC(=O)C1=C(C)NC(C)=C(C(=O)OC(C)(C)CN(C)CCC(c2ccccc2)c2ccccc2)C1c1cccc([N+](=O)[O-])c1 (stereo not drawn) | Nedd8-cullin1 interaction | neddylation, AlphaScreen |  | 100 µM | 26.2 |
| COc1cc(-c2cc(-c3ccc(N4CCNCC4)cc3)cnc2C)cc(OC)c1OC | human NDRG1 | enzyme activity, inhibitor |  | 0.1 µM | 1 |
| CCCc1cc(C)[nH]c(=O)c1CNC(=O)c1cc(-c2ccc(N3CCN(C(C)C)CC3)nc2)cc2c1cnn2C(C)C | PDSP panel target | radioligand binding, PDSP panel |  | 10000 nM | ≤ 50 |
| C[C@H]1O[C@@H](O[C@H]2[C@@H](O)C[C@H](O[C@H]3[C@@H](O)C[C@H](O[C@H]4CC[C@@]5(C)[C@H](CC[C@@H]6[C@@H]5C[C@@H](O)[C@]5(C)[C@@H](C7=CC(=O)OC7)CC[C@]65O)C4)O[C@@H]3C)O[C@@H]2C)C[C@H](O)[C@@H]1O | Nedd8-cullin1 interaction | neddylation, AlphaScreen |  | 100 µM | 24.5 |
| C#Cc1cc(-c2cc(Nc3nc(N[C@@H](C)c4ccc(F)cn4)ncc3Cl)n[nH]2)ccc1C=O | EGFR D770_N771insNPG, human | enzyme activity |  | 0.2 µM | 4.08 |
| CCN1CCN(Cc2ccc(NC(=O)c3ccc(C)c(Oc4ccnc5[nH]ccc45)c3)cc2C(F)(F)F)CC1 | ABL and ARG human | KiNativ | A-375 live cells | 0.5 µM | > 98 |
| COc1cc(/C=C/C(=O)N2CCN(CC(=O)N3CCCC3)CC2)cc(OC)c1OC.O=C(O)/C=C\C(=O)O | Nedd8-cullin1 interaction | neddylation, AlphaScreen |  | 100 µM | 26.6 |
| CC[C@@H]1[C@H](F)C(=O)N[C@@H]1COc1nccc2cc(C(N)=O)c(OC)cc12 | Aurora A, B and C | ATP-site probe binding, inhibitor, ActivX ATP probe profiling | THP-1 cell lysate | 0.2 mM, ATP loop site | -1 |
| O=C(Nc1ccc(CN2CCOCC2)c(C(F)(F)F)c1)c1ccc(C#Cc2cccc3cnccc23)cn1 | kinase panel (ten kinases) | enzyme activity, inhibitor |  | 10 µM, added: ATP 100 µM | < 30 |

Excerpt of the above:
| SMILES | target | assay | test system | conditions | inhibition [%] |
| --- | --- | --- | --- | --- | --- |
| O=C(Nc1ccc(CN2CCOCC2)c(C(F)(F)F)c1)c1ccc(C#Cc2cccc3cnccc23)cn1 | kinase panel (ten kinases) | enzyme activity, inhibitor |  | 10 µM, added: ATP 100 µM | < 30 |
